# Experimental data gathered from unrelated publications.
# Compare with care: the assays were run in different laboratories. ± gives the spread as reported.
SMILES,cell line,test,system,setting,how to read,measurement,value
COc1cc(CNC(=O)CSc2nc(-c3ccccc3)cc(C(F)(F)F)c2C#N)cc(OC)c1OC,MDA-MB-231,MTT,,"100 µM, 72 h",,viability,45 ± 3%
CC(c1ccccc1)(c1ccc(O)cc1)c1ccc(O)cc1,"HepG2 spheroids, dissociated",annexin V-FITC/PI flow cytometry,,"40 µM, 24 h",,viable cells,71 ± 11.8%
O=c1ccc2ccccc2o1,NHEK,"mitochondrial reserve capacity, Seahorse",,6 h,,point of departure,592 µM
N.N.O=C([O-])C1(C(=O)[O-])CCC1.[Pt+2],MDA-MB-231,"cell viability, MTT",,48 h,,IC50,102 ± 7.11 µM
O=C(Nc1cccnn1)N1CCC(=Cc2cccc(Oc3ccc(C(F)(F)F)cn3)c2)CC1,COS cells expressing human FAAH,,cell lysate,"100 nM, 1 h",,intracellular concentration,11.7 ± 0.6 nM
CC(C)CC(=O)OC[C@H]1O[C@@](C#N)(c2ccc3c(N)ncnn23)[C@H](O)[C@@H]1O,Caco-2,bidirectional permeability,,"0.9 µM, 120 min",apical to basolateral,recovery,105%
COc1cc(CNC(=O)c2sc3nc(C)cc(-c4ccccc4)c3c2N)cc(OC)c1OC,MDA-MB-231,MTT,,"100 µM, 72 h",,viability,48 ± 5%
CCn1c(-c2nonc2N)nc2cnc(Oc3cccc(NC(=O)c4ccc(OCCN5CCOCC5)cc4)c3)cc21,human cells,,,,,CC50,> 20 µM
Cc1cc(C)c2c(N)c(C(=O)Nc3ccon3)sc2n1,MDA-MB-231,MTT,,"100 µM, 72 h",,viability,44 ± 9%
O=C(Nc1c[nH]nc1-c1nc2cc(CN3CCOCC3)ccc2[nH]1)NC1CC1,ARPE-19 HiBiT-fibulin-3 knock-in,"cell viability, CellTiter-Glo",,"1.66 µM, 48 h",relative to: vehicle,ATP level reduction,10%
CN(C(=O)n1cnc(-c2ccc[n+]([O-])c2)c1)C1CCCCC1,COS cells expressing human FAAH,,COS cell culture supernatant,"100 nM, 0 h",,concentration,91.7 ± 3 nM
Oc1ccc(C2(c3ccc(O)cc3)c3ccccc3-c3ccccc32)cc1,HepG2 spheroids,annexin V-FITC/PI flow cytometry,,"1 µM, 96 h",,necrotic cells,59.5 ± 26.2%
Cc1cc(-c2ccccc2)c2c(N)c(C(=O)Nc3ccon3)sc2n1,MDA-MB-231,MTT,,"100 µM, 72 h",,viability,49 ± 5%
O=S(=O)(c1ccc(O)cc1)c1ccc(O)cc1,"HepG2 spheroids, dissociated",annexin V-FITC/PI flow cytometry,,"1 µM, 24 h",,early apoptotic cells,15.7 ± 2.36%
Cc1cc(C)c(C#N)c(SCC(=O)NCc2ccccc2)n1,MDA-MB-231,MTT,,"100 µM, 72 h",,viability,64 ± 7%
O=C(Nc1cnccc1Cl)N1CCN(Cc2ccc3c(c2)OC(F)(F)O3)CC1,COS cells expressing human FAAH,,cell lysate,"100 nM, 0 h, quantification limit 5 nM",,compound concentration,not detected
